Assay results from different studies.
A part holds a random share of what one study measured. Substitutions count along the parent as printed.

Study 1 — technique: RNA Bind-n-Seq; form: RNA; sample: in vitro; concentration: 200 nM; notes: whole 134-nt RNA, ends assumed; together with: 150 mM LiCl; baseline: input library; reading: higher = stronger binding; library: 7-deaza-guanosine replaces G
Target: Fragile X messenger ribonucleoprotein 1, C-terminal low-complexity region (Fmr1, Mus musculus, UniProt P35922)
Constant ends, left off below: GGGAGUUCUACAGUCCGACGAUC … UGGAAUUCUCGGGUGUCAAGG
Oligonucleotide	log2 enrichment
CUGUGCUACACAUCGUAUGUACCGAAUCGGGGAAAAAAAGGGGUUUUUUUGGGGUUUGGGGAAAGUAUUAUGUUACGCCGUUCGGAUCUG	-1.89
GUCCUGUGCUACACAUCGUAUGUACCGAAUCAAACCCCCAAAUUUUUAAAUUUUUAAAAAAGUAUUAUGUUACGCCGUUCGGAUCUGCAC	0.802
CCUCAAGUCCUGUGCUACACAUCGUAUGUACCGAAUCGGGCGGGCGGGCGGGGAAAGUAUUAUGUUACGCCGUUCGGAUCUGCACUUCCA	-1.04
CCUGUGCUACACAUCGUAUGUACCGAAUCGGGGAAAAAAAGGGAAAAAAAGGAAAAAAAGGAAAGUAUUAUGUUACGCCGUUCGGAUCUG	0.109
UCCUGUGCUACACAUCGUAUGUACCGAAUCGGAAAAAAGGGGAAAAAAGGGGAAAAAAGGAAAGUAUUAUGUUACGCCGUUCGGAUCUGC	-0.79
ACCAUGCAGGUGGGCAUCUUUGGGAAGUGGGGCAAGGGGAGGAUAGGGAGGGGGGUAACACUUUGGGAACAGGUGGUCCCAGGUCGUUUC	1.11
CUGUGCUACACAUCGUAUGUACCGAAUCGGGGAAAGGGGAAAAAAAGGGGAAAAAAAGGGGAAAGUAUUAUGUUACGCCGUUCGGAUCUG	1.49
UCAAGUCCUGUGCUACACAUCGUAUGUACCGAAUCGGGUGGGAGGGUUUUUGGGAAAGUAUUAUGUUACGCCGUUCGGAUCUGCACUUCC	-1.58

Study 2 — technique: protein-binding microarray; form: double-stranded DNA, one strand shown; sample: in vitro; concentration: 0.8 µM; notes: whole 60-bp probe, no competitor; reading: higher = stronger binding; constant ends, left off below: … GTCTTGATTCGCTTGACGCTGCTG
Target: Centromere-binding protein 1, full length, N-terminal tag (CBF1, Saccharomyces cerevisiae, UniProt P17106, residues 1-351)
Chain of UniProt P17106 (whole entry, looked up): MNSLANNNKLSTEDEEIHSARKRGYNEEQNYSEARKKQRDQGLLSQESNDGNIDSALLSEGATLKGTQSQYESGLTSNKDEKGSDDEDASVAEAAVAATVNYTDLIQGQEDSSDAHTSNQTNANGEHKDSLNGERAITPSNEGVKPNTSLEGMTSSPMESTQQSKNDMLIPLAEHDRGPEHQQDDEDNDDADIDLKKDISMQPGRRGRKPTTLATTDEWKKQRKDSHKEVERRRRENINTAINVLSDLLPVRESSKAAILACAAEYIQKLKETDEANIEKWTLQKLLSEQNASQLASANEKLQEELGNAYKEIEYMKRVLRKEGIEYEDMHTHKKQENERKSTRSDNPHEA
Oligonucleotide	fluorescence intensity
CTATTTTTGCTTCACGTGTATATATATCAGTTGTTC	5090 a.u.
GAAACCCACATTTAATGCGTGACGTTGAATCGATAG	823 a.u.
CTACGAACCATTGATCACGTGCAACGACAAACCTTC	18000 a.u.
CTAATTCCACTCCATCACCCATCTCTCACCATCTTC	529 a.u.
GAAACCATAGCAACTCATGTCACTATTAATTACTAG	508 a.u.
GAAATCACTTATCACGTTGTGGTGACAACGGCGTAG	2250 a.u.
CTACCCATAATGTTGCACGTGACAGGTTTGTATTTC	20000 a.u.
GAATATATCACTATCCACGTGATATTAAATCGTTAG	10100 a.u.
CCTAACTACTATAGGCACGTGATATAGCTTCGTACA	17800 a.u.
TGTACGAAGCTATCTCATCAGACTATAGTAGTTAGG	544 a.u.
CCTAACTACTATACACCGACCACATAGCTTCGTACA	541 a.u.
GAATTTTAGTTAGGACACGTTTCACAGGAGCATTAG	678 a.u.
CTAAAAATGCATTGTCACACGCTGTAGTGCTCGTTC	560 a.u.
TGTACGAAGCTATATCTGGTGGTTATAGTAGTTAGG	509 a.u.
GAAATCTAAACTACTCACATGAAAAGATTACTATAG	625 a.u.
CTAATTATCAAACGTCACCTGCGTATTATCAACTTC	892 a.u.
CTATGAGCAAAGCACGCCATCACTAATGGAACCTTC	538 a.u.
CTAGTTTAAGTCTACATCAGGATCACCTGCAATTTC	1130 a.u.
GAATTTAAGCAACATCAGCTGCACTAGTTGAGCTAG	517 a.u.

Study 3 — target: CCND1, cyclin fold, Cln2 fusion (human); technique: yeast growth competition, sequencing; sample: yeast; notes: strong parent motif; baseline: not given; reading: higher = stronger binding
Starting sequence: E2F2 docking peptide (human); LPAKRKLDLEGIG
Substitution	normalised enrichment score
LPAKRALDLEGIG [K6A]	0.391
LPAKKKLDLEGIG [R5K]	-0.0928
LPAKAKLDLEGIG [R5A]	0.527
LPAKKKLDFEGIG [R5K L9F]	0.644
LPAKRKLDLEGAG [I12A]	1.16
LPAKRKLDLAGIG [E10A]	0.312
LPAKAKADLEGIG [R5A L7A]	0.202
LAAKRKLDLEGIG [P2A]	0.221
LPAKRKLDAEGIG [L9A]	-0.25

Study 4 — technique: RNA Bind-n-Seq; form: RNA; sample: in vitro; concentration: not given; baseline: input RNA pool; reading: higher = stronger binding
Target: RING finger protein unkempt homolog, zinc fingers 1-6, GST-SBP tag (UNK, Homo sapiens, UniProt Q9C0B0, residues 30-357)
Chain of UniProt Q9C0B0 (30-357, looked up): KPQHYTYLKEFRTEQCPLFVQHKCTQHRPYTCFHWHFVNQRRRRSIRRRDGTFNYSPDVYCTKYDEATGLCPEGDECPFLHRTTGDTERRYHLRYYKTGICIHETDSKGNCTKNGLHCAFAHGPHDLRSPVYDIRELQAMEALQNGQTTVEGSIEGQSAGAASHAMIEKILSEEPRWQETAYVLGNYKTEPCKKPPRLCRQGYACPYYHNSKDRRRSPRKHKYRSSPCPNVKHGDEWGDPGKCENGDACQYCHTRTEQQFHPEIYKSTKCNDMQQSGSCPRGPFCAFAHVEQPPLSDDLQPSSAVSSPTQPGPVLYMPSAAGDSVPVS
Notes: RNA with constant flanks, human and mouse sites, ends assumed
Constant ends, left off below: GGGAGUUCUACAGUCCGACGAUC … CAACAGAGGAUUGAGCAUCA
Oligonucleotide	bound/input enrichment [ratio]
GAUAAGUGUGUGGAGAAGCCAGGAAGUCGGCUAGACUCCCGCACUGAAAACUGCCUCUCUAGCUGUGUGGAUCGCUUCAUUGACACUACUCUUGCCAUCACCGGUCGGUUUGCCCAGAUC	0.152
AGCAAGUUUUAAAAUUUUAAUGUUUUGGCUUUCAUUACUUCAUCUUAAUUAUAGCUUUGUAUGUUACUCUUAUUUAAUAUAAUCUCUAUUGUAUUGAUUUCUUCUGUAUUUACCUUUUGG	3.69
GGCUGCAGAGUCAUUCAGCGUAUCUUAGAGCACUGCACGGCAGAGCAGACCUUACCCAUCUUAGAAGAACUUCACCAACACACAGAACAGUUGGUACAGGAUCAGUAUGGCAAUUAUGUU	0.926
GUAUAUGGUGGAAAUUUGUGGCUAGUGUGAUUUUUGUUUGUUUCCUUUUAAGUACUGUUGAUCAGUUGUGACACUUACUGGUUAAACUUACGUUGCUAAAGAUUUCUCUAUAAUAAGCCA	0.498
GCAUCUCCCUGCUCCCCUCAACCCCCUCCCACCCCAUCCACGCCCCCUACCUUUCCCAAUUUUAGUUUCAUGCAAUAAAAAGGCCAAACUUUUUAUUCCAUAAAACAAGAAGGACAAAAC	1.32
ACACAGCUGGUUUCGAAGAGUCUUGCCUACAUCGAACGUGAUGUUUAUCGACCAAAAUUUUUAUCUAAAACAGUGAGAAUUACCUUUGGAUUCAACUGCAGAAAUAAAGAUCAUUAUGGG	0.163
AGAAGGGUGUUUGCAGUUUUGCAGGCCUCUGUGGCCUGGGCUUUCUAUGCUGCGAAUAUUACUAGAAGCUGGAUUCCUUUAAGGAGACUUGUAGUGAAAAUGUUUGUCUGGAUGUUCCUC	0.324
ACUUUUGGACUUGAUCAGUUGAAAACAAGAGAAGCCAUUGCCAUGCUACACAAAGAUGGCAUAGAAUUUGCUUUUAAAGAGCCUAAUCCGCAAGGGGAGAGCCAUCCACCUUUAAAUUUG	0.367

Excerpt of the above (study 2):
Oligonucleotide	fluorescence intensity
CCTAACTACTATACACCGACCACATAGCTTCGTACA	541 a.u.
GAATTTTAGTTAGGACACGTTTCACAGGAGCATTAG	678 a.u.
CTAAAAATGCATTGTCACACGCTGTAGTGCTCGTTC	560 a.u.
TGTACGAAGCTATATCTGGTGGTTATAGTAGTTAGG	509 a.u.
